# Results from different studies.
# Lines come from different studies, so protocols differ. ± gives the spread as reported.
# UniProt O88457, sequence (whole entry, looked up): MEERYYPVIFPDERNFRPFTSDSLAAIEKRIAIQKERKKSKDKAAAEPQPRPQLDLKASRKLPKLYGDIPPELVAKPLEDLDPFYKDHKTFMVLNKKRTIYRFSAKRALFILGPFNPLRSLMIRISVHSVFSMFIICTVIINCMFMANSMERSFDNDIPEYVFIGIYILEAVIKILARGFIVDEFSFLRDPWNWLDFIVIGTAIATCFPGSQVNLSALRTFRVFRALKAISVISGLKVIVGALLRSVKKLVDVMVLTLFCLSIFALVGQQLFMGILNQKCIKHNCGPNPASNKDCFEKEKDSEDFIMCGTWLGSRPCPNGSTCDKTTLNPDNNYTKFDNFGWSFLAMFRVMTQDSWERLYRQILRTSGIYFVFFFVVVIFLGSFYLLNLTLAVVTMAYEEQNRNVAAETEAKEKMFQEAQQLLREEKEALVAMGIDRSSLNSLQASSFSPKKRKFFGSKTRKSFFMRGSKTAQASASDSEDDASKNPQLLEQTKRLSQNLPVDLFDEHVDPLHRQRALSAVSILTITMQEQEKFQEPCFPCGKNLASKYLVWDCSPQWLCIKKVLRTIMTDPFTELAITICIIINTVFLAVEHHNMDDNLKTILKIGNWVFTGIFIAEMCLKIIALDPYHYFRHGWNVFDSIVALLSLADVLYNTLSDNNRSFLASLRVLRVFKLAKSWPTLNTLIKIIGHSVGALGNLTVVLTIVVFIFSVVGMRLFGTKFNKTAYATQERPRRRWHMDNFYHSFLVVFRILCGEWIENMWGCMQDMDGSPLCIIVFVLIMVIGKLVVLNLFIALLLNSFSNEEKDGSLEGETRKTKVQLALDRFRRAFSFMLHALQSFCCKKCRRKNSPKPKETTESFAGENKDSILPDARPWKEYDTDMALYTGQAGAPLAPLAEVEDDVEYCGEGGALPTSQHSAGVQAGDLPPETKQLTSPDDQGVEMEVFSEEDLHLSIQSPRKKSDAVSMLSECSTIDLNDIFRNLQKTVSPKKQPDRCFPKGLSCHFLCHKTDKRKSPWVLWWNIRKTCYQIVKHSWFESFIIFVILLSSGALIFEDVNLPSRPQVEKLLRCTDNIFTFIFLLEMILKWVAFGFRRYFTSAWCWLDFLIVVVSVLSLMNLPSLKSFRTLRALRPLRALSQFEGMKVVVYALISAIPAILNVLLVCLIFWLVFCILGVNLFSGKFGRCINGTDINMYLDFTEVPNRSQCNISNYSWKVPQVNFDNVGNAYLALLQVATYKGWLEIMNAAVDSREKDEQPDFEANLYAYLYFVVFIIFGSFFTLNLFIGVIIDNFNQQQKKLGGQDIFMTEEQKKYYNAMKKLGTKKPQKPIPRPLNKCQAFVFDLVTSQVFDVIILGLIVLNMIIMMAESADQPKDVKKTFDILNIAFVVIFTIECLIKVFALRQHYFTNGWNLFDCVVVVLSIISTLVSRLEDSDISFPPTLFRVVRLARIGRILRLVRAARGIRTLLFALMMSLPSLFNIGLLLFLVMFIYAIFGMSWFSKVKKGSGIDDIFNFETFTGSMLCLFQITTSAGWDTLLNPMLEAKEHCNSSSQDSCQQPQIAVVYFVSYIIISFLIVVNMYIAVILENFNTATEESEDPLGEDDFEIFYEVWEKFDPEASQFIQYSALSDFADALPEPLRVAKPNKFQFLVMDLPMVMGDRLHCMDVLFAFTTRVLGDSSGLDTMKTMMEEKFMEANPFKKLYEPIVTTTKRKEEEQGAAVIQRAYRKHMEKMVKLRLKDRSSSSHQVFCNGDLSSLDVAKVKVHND
SMILES,tested on,test,system,conditions,how to read,quantity,result
O=C(O)CCC(NP(=O)(O)OCCC[C@@H](NC(=O)CCC(NC(=O)CCCCCNC(=O)c1ccc([18F])cc1)C(=O)O)C(=O)O)C(=O)O (stereo partly shown),PC-3 tumour model,,"host not given, tumour","intravenous, 2 h, tumour-bearing",,tracer uptake,0.38 %ID/g
N=C(N)NCCC[C@@H]1NC(=O)[C@H](CCCCNC(=O)CCOCCOCCOCCOCCNC(=O)CC[C@H](NC(=O)CCOCCOCCOCCOCCNC(=O)CC[C@H](NC(=O)CN2CCN(CC(=O)O)CCN(CC(=O)O)CCN(CC(=O)O)CC2)C(=O)NCCOCCOCCOCCOCCC(=O)N[C@@H](CCC(=O)NCCOCCOCCOCCOCCC(=O)NCCCC[C@@H]2NC(=O)[C@@H](Cc3ccccc3)NC(=O)[C@H](CC(=O)O)NC(=O)CNC(=O)[C@H](CCCNC(=N)N)NC2=O)C(=O)NCCOCCOCCOCCOCCC(=O)NCCCC[C@@H]2NC(=O)[C@@H](Cc3ccccc3)NC(=O)[C@H](CC(=O)O)NC(=O)CNC(=O)[C@H](CCCNC(=N)N)NC2=O)C(=O)NCCOCCOCCOCCOCCC(=O)NCCCC[C@@H]2NC(=O)[C@@H](Cc3ccccc3)NC(=O)[C@H](CC(=O)O)NC(=O)CNC(=O)[C@H](CCCNC(=N)N)NC2=O)NC(=O)[C@@H](Cc2ccccc2)NC(=O)[C@H](CC(=O)O)NC(=O)CNC1=O [indium-111 labelled],,,"athymic nude mice, female, U-87 MG glioma xenograft, tumour and muscle","intravenous, 0.5 h",reference: tumour over muscle,tumour to tissue ratio,5.83 ± 0.8
O=C(O)CCC(NP(=O)(O)OCCC[C@@H](NC(=O)CCC(NC(=O)c1ccc([18F])cc1)C(=O)O)C(=O)O)C(=O)O (stereo partly shown),PC-3 tumour model,,"host not given, lung","intravenous, 2 h, tumour-bearing",,tracer uptake,0.29 %ID/g
COc1ccc(CNc2nc(N3CCC[C@H]3CO)ncc2C(=O)NNC(=O)c2cnc(N3CCC[C@H]3CO)nc2NCc2ccc(OC)c(Cl)c2)cc1Cl,Salmonella typhimurium,,TA97a,"125 µg/plate, 48 h",,revertant count,98 ± 5
N=C(N)NCCC[C@@H]1NC(=O)[C@H](CCCCNC(=O)CNC(=O)CNC(=O)CNC(=O)CC[C@H](NC(=O)CCOCCOCCOCCOCCNC(=O)CC[C@H](NC(=O)CN2CCN(CC(=O)O)CCN(CC(=O)O)CCN(CC(=O)O)CC2)C(=O)NCCOCCOCCOCCOCCC(=O)N[C@@H](CCC(=O)NCC(=O)NCC(=O)NCC(=O)NCCCC[C@@H]2NC(=O)[C@@H](Cc3ccccc3)NC(=O)[C@H](CC(=O)O)NC(=O)CNC(=O)[C@H](CCCNC(=N)N)NC2=O)C(=O)NCC(=O)NCC(=O)NCC(=O)NCCCC[C@@H]2NC(=O)[C@@H](Cc3ccccc3)NC(=O)[C@H](CC(=O)O)NC(=O)CNC(=O)[C@H](CCCNC(=N)N)NC2=O)C(=O)NCC(=O)NCC(=O)NCC(=O)NCCCC[C@@H]2NC(=O)[C@@H](Cc3ccccc3)NC(=O)[C@H](CC(=O)O)NC(=O)CNC(=O)[C@H](CCCNC(=N)N)NC2=O)NC(=O)[C@@H](Cc2ccccc2)NC(=O)[C@H](CC(=O)O)NC(=O)CNC1=O [indium-111 labelled],,,"female athymic nude mice, kidney","intravenous, 3 µCi, 0.5 h, U-87 MG glioma xenograft",,tissue uptake,10.7 ± 2.13 %ID/g
COc1cc(C(=O)NCCOCCOCCOCCNC(=O)c2ccc([18F])nc2)ccc1NC(=O)C1NC(CC(C)(C)C)C(C#N)(c2ccc(Cl)cc2F)C1c1cccc(Cl)c1F (stereo not shown),SJSA-1 tumour model,,"host not given, blood","1 h, tumour-bearing",,tracer uptake,1.08 %ID/g
CCN(Cc1ccccc1)C(=O)CCc1nc(CN2CCN(C(=O)Cc3ccc(OC)c(OC)c3)CC2)no1,"Sodium channel protein type 11 subunit alpha (Scn11a, Rattus norvegicus, UniProt O88457)",whole-cell patch clamp,rat DRG neurons,100 nM,,V1/2 of inactivation,-92.5 ± 11.8 mV
CCCCCCCCC(=O)NCc1ccc(O)c(OC)c1,mAb 5-D8,"antibody binding, indirect competitive ELISA",,added: coating antigen hapten 3-OVA,,IC50,0.1 µg/mL
C[C@@](O)(C(F)F)[C@H](NC(=O)c1ccc(C#CC#CC2CC2)cc1)C(=O)NO,,,"mouse, plasma","intraperitoneal, 40 mg/kg",,CL/F,27.9 mL/min/kg
COc1ccc(CNc2nc(N3CCC[C@H]3CO)ncc2C(=O)NN)cc1Cl,Salmonella typhimurium,,TA1535,"1000 µg/plate, 48 h",,revertant count,41 ± 6
CN(C)CC1CCCCC1(O)c1cccc(O)c1 (stereo not shown),,,Caco-2,"50 µM, 3 h, pH 6.8",,Papp B→A,13.7 ×10⁻⁶ cm/s
CCC(=O)N(C)c1ccc(Cl)c(Cl)c1,Salmonella typhimurium,Ames test,TA1537,"0.50 mg/plate, with rat liver S9",,revertants,2 ± 3.2 revertants/plate
O=C(O)CCC(NP(=O)(O)OCCC[C@@H](NC(=O)CCC(NC(=O)CCCCCNC(=O)CCCCCNC(=O)c1ccc([18F])cc1)C(=O)O)C(=O)O)C(=O)O (stereo partly shown),CWR22Rv1 tumour model,,"host not given, kidney","intravenous, 2 h, tumour-bearing",,tracer uptake,7.13 %ID/g
CN[C@](C)(C[18F])C(=O)O,MDA-MB-468 tumour model,,"host not given, lung","30 min, tumour-bearing",,tracer uptake,2.3 %ID/g
CCCC[C@H](NC(=O)CNC(=O)CNC(=O)c1ccc(NN)nc1)C(=O)N[C@H]1CC(=O)NCCCC[C@@H](C(N)=O)NC(=O)[C@H](Cc2c[nH]c3ccccc23)NC(=O)[C@H](CCCNC(=N)N)NC(=O)[C@@H](Cc2ccccc2)NC(=O)[C@H](Cc2c[nH]cn2)NC1=O [technetium-99m labelled],,,"C57 mouse, B16/F1 melanoma-bearing","intravenous, 24 h",reference: tumour over liver,tissue uptake ratio,28.4
CC[C@H](C)C(=O)N1CCC(NC(=O)Nc2ccc(OC(F)(F)F)c(F)c2)CC1,,,healthy volunteers,"oral, 8 mg single dose",,subjects with limb injury TEAE,16.7%

# For quick reference, copied from above:
SMILES,tested on,test,system,conditions,how to read,quantity,result
CCN(Cc1ccccc1)C(=O)CCc1nc(CN2CCN(C(=O)Cc3ccc(OC)c(OC)c3)CC2)no1,"Sodium channel protein type 11 subunit alpha (Scn11a, Rattus norvegicus, UniProt O88457)",whole-cell patch clamp,rat DRG neurons,100 nM,,V1/2 of inactivation,-92.5 ± 11.8 mV
